# Published values collected from several papers.
# Each line is one published result; not all experiments were run side by side. ± gives the spread as reported.
# Target: Mitogen-activated protein kinase kinase kinase 11 (MAP3K11, Homo sapiens, UniProt Q16584)
# Sequence of UniProt Q16584 (whole entry, looked up): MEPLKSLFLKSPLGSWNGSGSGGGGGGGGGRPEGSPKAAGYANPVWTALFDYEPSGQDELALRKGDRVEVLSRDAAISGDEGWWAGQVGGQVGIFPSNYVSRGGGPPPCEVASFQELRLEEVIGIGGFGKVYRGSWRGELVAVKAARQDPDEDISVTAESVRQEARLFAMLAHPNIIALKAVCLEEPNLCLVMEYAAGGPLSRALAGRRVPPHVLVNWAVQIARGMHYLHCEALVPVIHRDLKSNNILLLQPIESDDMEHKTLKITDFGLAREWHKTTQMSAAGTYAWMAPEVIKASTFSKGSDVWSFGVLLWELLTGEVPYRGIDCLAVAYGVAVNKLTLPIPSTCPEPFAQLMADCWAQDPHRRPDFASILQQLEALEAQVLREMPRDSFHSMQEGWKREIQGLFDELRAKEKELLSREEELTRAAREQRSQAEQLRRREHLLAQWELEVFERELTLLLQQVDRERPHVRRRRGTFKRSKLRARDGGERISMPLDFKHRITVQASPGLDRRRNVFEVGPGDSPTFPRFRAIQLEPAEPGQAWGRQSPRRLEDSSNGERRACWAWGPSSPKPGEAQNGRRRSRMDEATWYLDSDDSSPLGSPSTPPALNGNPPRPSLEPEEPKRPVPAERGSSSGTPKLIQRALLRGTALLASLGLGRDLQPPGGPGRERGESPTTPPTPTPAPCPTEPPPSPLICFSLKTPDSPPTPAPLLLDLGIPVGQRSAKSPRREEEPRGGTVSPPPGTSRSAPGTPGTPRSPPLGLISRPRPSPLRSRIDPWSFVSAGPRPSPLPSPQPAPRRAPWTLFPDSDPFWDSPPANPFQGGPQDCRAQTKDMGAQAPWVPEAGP
assay,test system,conditions,how to read,measurement,value,Compound
KINOMEscan,,1 µM,,remaining binding,79%,C=CC(=O)N1CCC(C(=O)NCC(=O)N2CCN(c3nc(-c4cnc(N)nc4C(F)F)nc(N4CCOCC4)n3)CC2)CC1
"ATP-site probe binding, ActivX profiling, refers to: MLK3",THP-1 cell lysate,"0.04 mM, Lys1 site",,inhibition,-0.9%,CC[C@@H]1[C@H](F)C(=O)N[C@@H]1COc1nccc2cc(C(N)=O)c(OC)cc12
enzyme activity,,10 µM,,remaining activity,32%,O=C1NC(=O)/C(=C/c2ccc(-c3ccc(F)cc3O)o2)S1
"kinase activity, inhibitor, HotSpot radiometric",,"100 nM, added: ATP 10 µM",,remaining activity,89.1 ± 0.6%,C=CC(=O)N1CCC[C@@H](n2nc(-c3ccc(Oc4ccccc4)cc3)c3c(N)ncnc32)C1
KINOMEscan,,1 µM,reference: DMSO control,remaining binding,90%,C=CC(=O)N1CCC(COCC(=O)N2CCN(c3nc(-c4cnc(N)nc4C(F)F)nc(N4CCOC[C@@H]4C)n3)CC2)CC1
"kinase activity, inhibitor, HotSpot radiometric",,"1000 nM, added: ATP at Km",,remaining activity,91.4 ± 1.6%,COc1ccc(F)cc1C(=O)NCc1ccc(-c2nn([C@@H](C)C(F)(F)F)c(N)c2C(N)=O)cc1
,,"concentration not given, gene name MLK3",,percent of control,100%,C1=C/COCc2cc(ccc2OCCN2CCCC2)Nc2nccc(n2)-c2cccc(c2)COC/1
enzyme activity,,10 µM,,remaining activity,100%,O=C(NC1CCC1)c1ccc2nc(-c3cccc(NS(=O)(=O)NCCN4CCCCC4)c3)cn2c1
KINOMEscan,,0.1 µM,reference: DMSO control,remaining binding,100%,C[C@@H](c1ccc(-n2cnc3c(N)ncnc32)cc1)N1CCc2nn(C)c(Cc3ccccc3)c2C1=O
"kinase activity, inhibitor, HotSpot radiometric",,"100 nM, added: ATP 10 µM",,remaining activity,100 ± 2.7%,CC#CC(=O)N1CCC[C@H]1c1nc(-c2ccc(C(=O)Nc3ccccn3)cc2)c2c(N)nccn12
enzyme activity,,10 µM,reference: control,remaining activity,6.3%,COc1cc(N2CCN(C)CC2)ccc1Nc1nc(N)n(C(=S)NCc2c(Cl)cccc2Cl)n1
